Measurements pooled from the literature.
Lines come from different studies, so protocols differ. ± gives the spread as reported. Values after ≈ are worked out from the molar mass of the structure shown.

`Cn1cc(Nc2nc(N)nc(-c3cccc(-n4ccc5cc(C6CC6)cc(F)c5c4=O)c3CO)n2)cn1` has a nausea incidence of 0% (healthy humans, fed; oral tablet, 50 mg twice daily (multiple dose), 14 (unit not given); relative to: subjects).
With `CC(=O)N(C)C1CCN(c2cc(F)cc(NC(=O)c3cc4c(F)ccc(C)c4[nH]3)c2)C1` (centres unmarked) the plasma concentration was 16.4 ng/mL (CD1 mouse, plasma; oral, 50 mg/kg, 0.25 h).
`COc1cc(NC(=O)CSc2nncn2C)cc(OC)c1OC` gave a thermodynamic solubility of 4.12 mM (≈ 1390 µg/mL) (aqueous buffer; pH 7.4).
`C[C@@H]1CN(Cc2ncccn2)C[C@H]1c1nc2c(cnn2C2CCOCC2)c(=O)[nH]1` — result for “mean residence time”: 0.6 h (mouse, plasma; intravenous, 0.3 mg/kg).
`Cc1cc(Nc2ncnc3ccc(NC4=NC(C)(CO)CO4)cc23)ccc1Oc1ccn2ncnc2c1` (centres unmarked) has a %AUCextrap, median of 4.12% (healthy volunteers, plasma; oral, 300 mg tucatinib, day 1).
For `C[C@@H](Nc1cc(F)cc(F)c1)c1cc(C(=O)N(C)C)cc2c(=O)cc(N3CCOCC3)oc12`, “t1/2 geometric mean” read 3.41 h (human, plasma; oral, 60 mg, day 1 single dose).
`CNCc1ccc(-c2[nH]c3cc(F)cc4c3c2CCNC4=O)cc1` — result for “incidence of decreased appetite”: 0% (human patients; oral, 600 mg twice daily, grade 3).
For `CC(C)(C(=O)N1CCOc2c(C#N)cncc2C1)C(F)F`, “subjects with adverse event” read 0% (measured: Gastrointestinal disorders; human; oral, 20 mg once daily, 14 days, multiple ascending dose).
For `CN1CCN(c2cc(Cl)c(C(=O)Nc3cncc(-c4nc5ccccc5s4)c3)cc2[N+](=O)[O-])CC1`, the kinetic solubility was under 0.0016 mM (phosphate buffer; pH 7.4).
`COc1cc(Nc2ncc3c(n2)-c2ccc(Cl)cc2C(c2c(F)cccc2OC)=NC3)ccc1C(=O)O` — result for “patients with decreased ejection fraction”: 4% (cancer patients; oral, dose not given, all grades any attribution, together with: pembrolizumab).
Under “share of ECG observations”, `CCOc1c([C@H](C)n2nc(C)c3c(N)ncnc32)cc(Cl)c(F)c1[C@@H]1CNC(=O)C1` is recorded as 0.6% (measured: ΔQTcF > 60 ms; previously treated B-cell malignancy; oral, dose not given, baseline QTcF ≤450 ms, all doses).
The MRT of `O=c1oc2c(O)c(O)cc3c(=O)oc4c(O)c(O)cc1c4c23` is reported as 4.83 ± 0.3 h (rat, plasma; oral, 500 mg/kg extract, extract).
`CNCCOC12CC3(C)CC(C)(CC(Cn4ncc(-c5ccc(N6CCc7cccc(C(=O)Nc8nc9ccccc9s8)c7C6)nc5C(=O)O)c4C)(C3)C1)C2`: “dP/dt at 50 change” -20% (beagle dog, male, anaesthetised; intravenous bolus, 0.03 mg/kg, 150 min; relative to: baseline).
`NS(=O)(=O)c1ccc(CNc2nc(Nc3cccc(NC(=O)N4CCCC4)c3)ncc2Br)cc1` — result for PAMPA permeability: “not detected” (PAMPA; PBS; 5 h, pH 7.4).
Under “stability relative error”, `C1=C/COCc2cc(ccc2OCCN2CCCC2)Nc2nccc(n2)-c2cccc(c2)COC/1` is recorded as 0.51% (rat plasma; 1200 ng/mL, 1 months, -20 °C, long-term storage; relative to: nominal concentration).
`C[C@H]1O[C@@H](O[C@H]2[C@@H](O)C[C@H](O[C@H]3[C@@H](O)C[C@H](O[C@H]4CC[C@@]5(C)[C@H](CC[C@@H]6[C@@H]5C[C@@H](O)[C@]5(C)[C@@H](C7=CC(=O)OC7)CC[C@]65O)C4)O[C@@H]3C)O[C@@H]2C)C[C@H](O)[C@@H]1O`: “subjects with adverse event” 0% (measured: haematoma; healthy men; oral, dose not given, 8 days, treatment-emergent, crossover trial).
Under “median placental accumulation”, `CCc1ccc(-c2ccc(-c3cc(F)c(F)c(F)c3)c(F)c2)cc1` is recorded as 3.02 ng/g (rat, placenta; 10 ng/mL in perfusate, low dose, mixture of 21 LCMs).
`O=C(Nc1nc2cccc(-c3ccc(CN4CCS(=O)(=O)CC4)cc3)n2n1)C1CC1` — result for “treatment-emergent adverse events”: 0% (measured: hypotension; human rheumatoid arthritis patients; oral, 200 mg once daily, 4 weeks, regardless of relatedness).
With `O=C(CCCCCCC(=O)Nc1ccc(CC[18F])cc1)NO` the tissue uptake was 4.3 ± 1.2 %ID/g (athymic nu/nu male mice, LNCaP xenograft, large intestine; intravenous, 0.5 h).
Under “class-switched memory B cell change”, `Cn1cc(Nc2nccc(-c3ccc4c(c3)CN(C3COC3)CC[C@H]4NC(=O)c3cn(C(C)(C)C)nn3)n2)cn1` is recorded as 50.5% (human, whole blood; 150 mg twice daily, day 14; relative to: pre-dose baseline).

Repeated from above:
Under “share of ECG observations”, `CCOc1c([C@H](C)n2nc(C)c3c(N)ncnc32)cc(Cl)c(F)c1[C@@H]1CNC(=O)C1` is recorded as 0.6% (measured: ΔQTcF > 60 ms; previously treated B-cell malignancy; oral, dose not given, baseline QTcF ≤450 ms, all doses).
The MRT of `O=c1oc2c(O)c(O)cc3c(=O)oc4c(O)c(O)cc1c4c23` is reported as 4.83 ± 0.3 h (rat, plasma; oral, 500 mg/kg extract, extract).
